Published values from different studies.
Numbered parts are unrelated; each lists some results of a single study. “And” joins repeats or separate records; there may be more than shown.
Chain of UniProt P00519 (whole entry, unmodified, looked up): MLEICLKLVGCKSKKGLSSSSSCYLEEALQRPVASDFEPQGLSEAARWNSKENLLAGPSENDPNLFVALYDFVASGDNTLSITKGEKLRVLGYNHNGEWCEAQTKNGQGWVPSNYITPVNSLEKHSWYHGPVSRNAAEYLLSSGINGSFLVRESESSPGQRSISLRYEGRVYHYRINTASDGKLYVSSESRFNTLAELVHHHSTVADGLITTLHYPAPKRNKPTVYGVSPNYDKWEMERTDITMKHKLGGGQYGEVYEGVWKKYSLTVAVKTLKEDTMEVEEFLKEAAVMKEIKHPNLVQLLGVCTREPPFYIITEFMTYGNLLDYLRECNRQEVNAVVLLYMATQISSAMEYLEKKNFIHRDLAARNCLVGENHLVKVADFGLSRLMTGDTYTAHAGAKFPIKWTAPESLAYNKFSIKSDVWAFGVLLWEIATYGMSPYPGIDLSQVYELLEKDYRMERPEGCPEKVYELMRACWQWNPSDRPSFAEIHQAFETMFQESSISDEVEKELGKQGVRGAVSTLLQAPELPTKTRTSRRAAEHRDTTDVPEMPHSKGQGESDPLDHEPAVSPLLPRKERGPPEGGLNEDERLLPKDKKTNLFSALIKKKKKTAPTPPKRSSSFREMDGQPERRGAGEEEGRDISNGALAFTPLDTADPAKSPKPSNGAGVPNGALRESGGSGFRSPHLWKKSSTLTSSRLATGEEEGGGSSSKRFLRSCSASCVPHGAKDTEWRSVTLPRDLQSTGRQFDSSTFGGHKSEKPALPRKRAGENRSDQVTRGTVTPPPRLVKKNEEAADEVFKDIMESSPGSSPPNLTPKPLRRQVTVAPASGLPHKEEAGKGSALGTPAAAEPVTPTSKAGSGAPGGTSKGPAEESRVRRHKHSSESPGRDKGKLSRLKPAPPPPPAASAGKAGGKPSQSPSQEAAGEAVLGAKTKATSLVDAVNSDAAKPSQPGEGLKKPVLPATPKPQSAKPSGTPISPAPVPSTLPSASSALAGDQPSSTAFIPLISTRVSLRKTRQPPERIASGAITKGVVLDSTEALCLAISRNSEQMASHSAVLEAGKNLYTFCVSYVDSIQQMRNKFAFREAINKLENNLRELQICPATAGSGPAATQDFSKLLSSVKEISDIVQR
Chain of UniProt O43683 (whole entry, looked up): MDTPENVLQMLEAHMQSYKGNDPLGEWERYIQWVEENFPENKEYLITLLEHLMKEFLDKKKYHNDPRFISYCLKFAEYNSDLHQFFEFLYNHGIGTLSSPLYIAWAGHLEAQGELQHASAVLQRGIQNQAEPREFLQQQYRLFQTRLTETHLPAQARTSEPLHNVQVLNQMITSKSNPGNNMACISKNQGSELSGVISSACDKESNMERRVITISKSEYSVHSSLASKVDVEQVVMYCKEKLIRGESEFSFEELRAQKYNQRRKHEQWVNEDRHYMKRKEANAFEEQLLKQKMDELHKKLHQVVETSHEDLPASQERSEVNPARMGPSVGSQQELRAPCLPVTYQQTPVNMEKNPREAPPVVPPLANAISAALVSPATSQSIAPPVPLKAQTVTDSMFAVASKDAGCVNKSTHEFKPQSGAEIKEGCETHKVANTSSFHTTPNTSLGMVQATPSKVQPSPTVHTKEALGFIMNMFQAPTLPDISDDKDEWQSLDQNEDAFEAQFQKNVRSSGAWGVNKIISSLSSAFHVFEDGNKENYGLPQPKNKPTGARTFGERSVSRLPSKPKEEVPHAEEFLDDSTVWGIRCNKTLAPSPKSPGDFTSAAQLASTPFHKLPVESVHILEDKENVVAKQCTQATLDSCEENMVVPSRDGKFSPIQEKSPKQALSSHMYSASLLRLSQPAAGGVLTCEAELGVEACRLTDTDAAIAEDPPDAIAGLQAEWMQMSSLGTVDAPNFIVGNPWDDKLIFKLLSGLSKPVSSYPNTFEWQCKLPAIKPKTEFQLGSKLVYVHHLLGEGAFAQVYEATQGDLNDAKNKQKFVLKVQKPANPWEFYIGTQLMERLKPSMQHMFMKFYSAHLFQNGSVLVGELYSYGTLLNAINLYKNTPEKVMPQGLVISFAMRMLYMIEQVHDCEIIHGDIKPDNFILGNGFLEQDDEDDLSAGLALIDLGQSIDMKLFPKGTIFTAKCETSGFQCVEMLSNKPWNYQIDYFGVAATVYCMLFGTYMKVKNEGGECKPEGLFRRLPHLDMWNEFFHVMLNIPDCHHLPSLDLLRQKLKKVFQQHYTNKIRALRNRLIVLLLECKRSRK
Chain of UniProt O75582 (whole entry, looked up): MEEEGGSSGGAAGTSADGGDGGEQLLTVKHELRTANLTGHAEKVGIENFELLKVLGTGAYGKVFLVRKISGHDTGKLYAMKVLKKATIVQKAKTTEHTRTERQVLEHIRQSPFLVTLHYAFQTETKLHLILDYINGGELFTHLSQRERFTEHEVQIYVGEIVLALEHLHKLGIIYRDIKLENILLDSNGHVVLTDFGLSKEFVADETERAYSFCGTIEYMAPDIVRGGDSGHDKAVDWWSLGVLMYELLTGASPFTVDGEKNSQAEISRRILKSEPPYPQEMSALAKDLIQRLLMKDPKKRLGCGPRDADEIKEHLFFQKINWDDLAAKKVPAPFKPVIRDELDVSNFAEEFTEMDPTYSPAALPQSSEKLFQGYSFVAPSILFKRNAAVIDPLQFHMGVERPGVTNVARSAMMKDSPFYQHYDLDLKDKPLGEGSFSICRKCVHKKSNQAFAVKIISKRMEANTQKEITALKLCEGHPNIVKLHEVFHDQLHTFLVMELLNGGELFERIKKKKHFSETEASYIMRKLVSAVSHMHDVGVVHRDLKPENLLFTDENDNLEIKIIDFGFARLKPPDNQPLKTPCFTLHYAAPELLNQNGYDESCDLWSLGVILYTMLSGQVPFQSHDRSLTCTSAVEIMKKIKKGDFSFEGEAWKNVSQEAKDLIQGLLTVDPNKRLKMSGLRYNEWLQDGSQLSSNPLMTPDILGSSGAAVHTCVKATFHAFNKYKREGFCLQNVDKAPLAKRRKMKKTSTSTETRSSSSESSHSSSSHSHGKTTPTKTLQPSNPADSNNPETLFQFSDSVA
Chain of UniProt Q86UX6 (whole entry, looked up): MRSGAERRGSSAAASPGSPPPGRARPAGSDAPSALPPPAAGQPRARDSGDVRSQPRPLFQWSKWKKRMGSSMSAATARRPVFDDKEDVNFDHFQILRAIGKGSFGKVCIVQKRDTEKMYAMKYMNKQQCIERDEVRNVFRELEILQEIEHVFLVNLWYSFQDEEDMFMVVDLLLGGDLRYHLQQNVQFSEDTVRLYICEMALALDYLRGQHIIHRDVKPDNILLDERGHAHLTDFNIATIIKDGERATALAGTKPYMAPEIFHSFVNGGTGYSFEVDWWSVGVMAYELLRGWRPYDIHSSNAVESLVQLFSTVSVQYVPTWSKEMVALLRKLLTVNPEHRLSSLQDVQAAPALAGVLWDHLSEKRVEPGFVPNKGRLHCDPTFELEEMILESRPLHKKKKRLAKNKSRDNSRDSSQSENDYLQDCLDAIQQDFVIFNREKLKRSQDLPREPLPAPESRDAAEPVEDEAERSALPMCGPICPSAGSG
Chain of UniProt P29317 (whole entry, looked up): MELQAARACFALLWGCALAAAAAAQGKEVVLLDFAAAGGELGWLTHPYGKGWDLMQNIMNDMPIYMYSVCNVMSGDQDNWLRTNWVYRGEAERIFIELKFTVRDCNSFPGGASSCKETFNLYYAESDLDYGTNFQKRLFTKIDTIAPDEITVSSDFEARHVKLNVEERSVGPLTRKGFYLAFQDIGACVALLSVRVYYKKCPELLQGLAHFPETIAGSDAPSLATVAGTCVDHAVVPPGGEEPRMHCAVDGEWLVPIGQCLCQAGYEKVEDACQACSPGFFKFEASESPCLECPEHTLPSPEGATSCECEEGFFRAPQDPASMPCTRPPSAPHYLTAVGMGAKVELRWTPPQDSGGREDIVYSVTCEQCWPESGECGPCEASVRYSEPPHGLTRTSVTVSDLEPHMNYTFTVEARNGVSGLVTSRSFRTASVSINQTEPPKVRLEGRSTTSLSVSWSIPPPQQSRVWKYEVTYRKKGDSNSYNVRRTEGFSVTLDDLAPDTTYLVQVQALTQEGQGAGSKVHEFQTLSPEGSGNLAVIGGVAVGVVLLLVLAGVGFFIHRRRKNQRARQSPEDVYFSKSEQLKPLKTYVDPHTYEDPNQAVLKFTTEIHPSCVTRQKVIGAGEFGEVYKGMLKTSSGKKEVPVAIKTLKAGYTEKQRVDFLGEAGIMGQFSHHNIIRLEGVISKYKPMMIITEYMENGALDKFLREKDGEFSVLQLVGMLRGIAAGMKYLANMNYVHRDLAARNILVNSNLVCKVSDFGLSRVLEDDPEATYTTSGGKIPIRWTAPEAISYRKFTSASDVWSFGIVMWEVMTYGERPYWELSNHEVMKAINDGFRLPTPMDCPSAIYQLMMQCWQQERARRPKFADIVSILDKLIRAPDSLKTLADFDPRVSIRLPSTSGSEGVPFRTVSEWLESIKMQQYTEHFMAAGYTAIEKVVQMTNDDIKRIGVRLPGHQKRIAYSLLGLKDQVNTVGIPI

Sample 1
Cell line: sample E normal colon organoid
Method: CellTiter-Glo
Tested at: 1 µM
Time: 4 days
Relative to: DMSO
NS(=O)(=O)c1cc(NC(=O)C2(c3ccccc3Cl)CC2)ccc1Oc1cccc(Cl)c1 has a viability of 112%.
The viability of CN(c1ccnc(CNc2nc(Nc3ccc4c(c3)CC(=O)N4)ncc2C(F)(F)F)n1)S(C)(=O)=O is reported as 126%.
The viability of C[C@H](c1ccnc(Nc2nc3ccc(-c4cc(N(C)C)ncn4)cc3[nH]2)c1)N1CCN(C(=O)CC(F)(F)F)CC1 is reported as 67.3%.
With O=C(Nc1cccnn1)N1CCC(=Cc2cccc(Oc3ccc(C(F)(F)F)cn3)c2)CC1 the viability was 86.5%.
With CN(C)C(=O)Cn1cc(-c2nc(C3(c4ccc(-c5cnc(N)nc5)cc4)CC3)no2)cn1 the viability was 87.7%.
C[C@H](c1ccc(F)cc1)N(Cc1cccc(C(=O)O)c1)C(=O)c1cnc2ccccc2c1 has a viability of 106%.
The viability of CN(C)c1ncnc(-c2ccc3nc(Nc4cc(CN5CCN(C(=O)CC(F)(F)F)CC5)ccn4)[nH]c3c2)c1Cl is reported as 93.8%.
The viability of CCCCN(Cc1ccccc1)C(=O)c1ccc(S(=O)(=O)Nc2ccccc2)cc1 is reported as 128%.
The viability of C[C@H](c1ccc(F)cc1)N(Cc1ccc(Cl)c(C(=O)O)c1)C(=O)c1cnc2ccccc2c1 is reported as 102%.
With C[C@H](NC(=O)c1cnc2n1[C@](C)(Cc1ccc(C#N)cc1)C(=O)N2c1cc(Cl)c(F)c(Cl)c1)C(=O)NC1(c2ccccn2)CC1 the viability was 108%.
C[C@@]1(Cc2ccc(C#N)cc2)C(=O)N(c2cc(Cl)cc(Cl)c2)c2ncc(C(=O)NC3(c4nc(C5CCC5)no4)CC3)n21 has a viability of 120%.
For Cc1c(NC(=O)c2cc(C(N)=O)nc3cc(F)ccc23)c(C(F)(F)F)nn1Cc1ccc(C#N)cc1, the viability was 31.8%.
For NS(=O)(=O)c1cc(NC(=O)Cc2ccccc2)ccc1Oc1cccc(Cl)c1, the viability was 112%.

Sample 2
Target: Tyrosine-protein kinase HCK (HCK, Homo sapiens, UniProt P08631)
Chain of UniProt P08631 (whole entry, looked up): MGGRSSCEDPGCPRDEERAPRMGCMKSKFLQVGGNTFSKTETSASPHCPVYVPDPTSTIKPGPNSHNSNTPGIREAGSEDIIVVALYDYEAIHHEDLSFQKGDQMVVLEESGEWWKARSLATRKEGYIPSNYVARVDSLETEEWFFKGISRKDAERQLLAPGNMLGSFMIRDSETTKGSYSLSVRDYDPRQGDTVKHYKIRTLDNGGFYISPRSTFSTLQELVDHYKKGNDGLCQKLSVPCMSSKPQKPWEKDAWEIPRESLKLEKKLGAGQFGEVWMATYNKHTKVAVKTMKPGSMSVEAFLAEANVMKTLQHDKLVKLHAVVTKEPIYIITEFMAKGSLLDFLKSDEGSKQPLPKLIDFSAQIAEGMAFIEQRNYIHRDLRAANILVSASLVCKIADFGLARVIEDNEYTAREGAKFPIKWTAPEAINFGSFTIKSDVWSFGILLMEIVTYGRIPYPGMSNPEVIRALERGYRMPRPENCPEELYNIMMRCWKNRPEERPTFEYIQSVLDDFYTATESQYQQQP
Effect on: enzyme activity
Action: inhibitor
Tested at: 0.5 µM
Relative to: control
With O=C(CCCc1ccc(-c2ccccc2F)cc1)Nc1ccc(O)cc1 the remaining activity was 93.5%.
COc1ccc(OC)c2c(=S)c3ccccc3[nH]c12 has a remaining activity of 95.8%.
Cn1sc(=O)n(Cc2ccccc2)c1=O has a remaining activity of 103%.
The remaining activity of N#CC(C#N)=C(N)/C(C#N)=C/c1ccc(O)cc1 is reported as 98.6%.
Cn1c2ccccc2c2c3c(c4c5ccccc5n(CCC#N)c4c21)CNC3=O has a remaining activity of 96.8%.
With OCC(O)CCON=C1C(c2c(O)[nH]c3ccccc23)=Nc2ccccc21 (stereo not shown) the remaining activity was 23%.
With Nc1[nH]nc2nc3ccccc3nc12 the remaining activity was 98.6%.
Nc1ncnc2n[nH]c(Nc3ccc(F)cc3)c12 has a remaining activity of 90.7%.
NCCNc1ncc(C(N)=O)c(Nc2cccc(C(F)(F)F)c2)n1 has a remaining activity of 89.7%.
For COc1ccc(C(=O)Nc2sc3c(c2C(N)=O)CCCC3)cc1OC, the remaining activity was 109%.
O=S(=O)(c1cccc2cnccc12)N1CCCNCC1 has a remaining activity of 95.9%.
The remaining activity of C#Cc1cccc(Nc2ncnc3cc(OCCOC)c(OCCOC)cc23)c1 is reported as 74.6%.
With Cc1ccc(Nc2nccc(N(C)c3ccc4c(C)n(C)nc4c3)n2)cc1S(N)(=O)=O the remaining activity was 64.8%.
Cc1ccc(NC(=O)c2ccc(CN3CCN(C)CC3)cc2)cc1Nc1nc(-c2cccnc2)cs1 has a remaining activity of 55.7%.
For Nc1ccc2ncnc(NCCc3ccc(Oc4ccccc4)cc3)c2c1, the remaining activity was 96.4%.

Sample 3
SMILES: CN1CCN(C(=O)c2ccc(NC(=O)Nc3ccc(N(C)c4ccnc(Nc5ccc(CS(C)(=O)=O)cc5)n4)cc3)cc2)CC1
For ABL1 (Homo sapiens, UniProt P00519, F317I); 1 µM: remaining binding read 96% and 69%.
CDC42BPG (Homo sapiens, UniProt Q6DT37); DiscoverX cell-free binding; 1000 nM — remaining binding: 64%.
It gave 92% for remaining binding (EGFR (Homo sapiens, UniProt P00533, L861Q); binding; 1 µM).
The remaining binding was 0.1% (IRAK3 (Homo sapiens, UniProt Q9Y616); binding; 1 µM).
For SGK2 (Homo sapiens, UniProt Q9HBY8); binding; 1 µM: remaining binding read 73%.
STK32C (Homo sapiens, UniProt Q86UX6); binding; 1 µM — remaining binding: 100%.
For CASK (Homo sapiens, UniProt O14936); binding; 1 µM: remaining binding read 85%.
For EIF2AK4 (Homo sapiens, UniProt Q9P2K8, S808G); binding; 1 µM: remaining binding read 100%.
The remaining binding was 85% (EPHA2 (Homo sapiens, UniProt P29317); binding, competition with immobilised ligand; 1 µM).
AKT3 (Homo sapiens, UniProt Q9Y243); binding; 1 µM — remaining binding: 100%.
It gave 46% for remaining binding (BUB1 (Homo sapiens, UniProt O43683); binding; 1 µM).
The remaining binding was 100% (Ribosomal protein S6 kinase alpha-5, N-terminal kinase domain (RPS6KA5, Homo sapiens, UniProt O75582); binding, competition with immobilised ligand; 1 µM).
KDR (Homo sapiens, UniProt P35968); binding, competition with immobilised ligand; 1 µM — remaining binding: 1.1%.
The remaining binding was 92% (EPHA7 (Homo sapiens, UniProt Q15375); binding, competition with immobilised ligand; 1 µM).
The remaining binding was 100% (PRKCD (Homo sapiens, UniProt Q05655); binding; 1 µM).

Sample 4
Structure (SMILES): Cn1cnc(Cn2ccc3ccc(CNCc4[nH]c5ccccc5c4[C@H]4NC(=O)c5ccc(O)cc54)cc32)c1
Effect on: binding
Action: competitor
Method: NanoBRET
Cells: HEK293
KRAS G12C: GTPase KRas (KRAS, Homo sapiens, UniProt P01116, G12C)
KRAS: GTPase KRas (KRAS, Homo sapiens, UniProt P01116)
KRAS G12C; 3.05 nM, 1 h; relative to: vehicle and 20 µM BI compound — normalized BRET: 92.1% and 90.7% and 95.5% and 88.9%.
For KRAS; 1.02 nM: normalized BRET read 93.7% and 77% and 73% and 94.1%.
The normalized BRET was 79.6% and 101% and 68.9% and 70.5% (KRAS; 247 nM).
For KRAS; 20 µM: normalized BRET read -2.55e-15% and 0.0219% and -5e-07% and -9.51e-16%.
The normalized BRET was -0.95% and -0.78% and 0.96% and 0.76% (KRAS G12C; 20 µM, 3 h; relative to: vehicle and 20 µM BI compound).
It gave 3.06% and -2.48% and -0.49% and -0.09% for normalized BRET (KRAS G12C; 20 µM, 0.5 h; relative to: vehicle and 20 µM BI compound).

For quick reference, copied from above (sample 2):
The remaining activity of N#CC(C#N)=C(N)/C(C#N)=C/c1ccc(O)cc1 is reported as 98.6%.
With Cc1ccc(Nc2nccc(N(C)c3ccc4c(C)n(C)nc4c3)n2)cc1S(N)(=O)=O the remaining activity was 64.8%.
